Measurements collected from several papers.
± marks the error that the study gave.

| Structure (SMILES) | test | system | conditions | quantity | value |
| --- | --- | --- | --- | --- | --- |
| Cn1cnc2c(F)c(Nc3ccc(Br)cc3Cl)c(C(=O)NOCCO)cc21 | population PK model | human, plasma | oral, zero-order absorption model, fasted | absorption lag time | 0.39 h |
| Nc1nc2cccc(-c3ccc(CN4CCS(=O)(=O)CC4)cc3)n2n1 | population PK bootstrap median | human | – | absorption rate constant | 0.478 h⁻¹ |
| CC[C@@H]1CN(C(=O)NCC(F)(F)F)C[C@@H]1c1cnc2cnc3[nH]ccc3n12 | population PK modelling | human | oral, extended-release formulation, outliers re-estimated | absorption rate constant (Ka) | 0.0433 h⁻¹ |
| C[C@@H]1CCO[C@H]2Cn3cc(C(=O)NCc4ccc(F)cc4F)c(=O)c(O)c3C(=O)N12 | population PK model | paediatric humans, plasma | oral, dispersible tablet or granules | absorption rate constant | 1.74 h⁻¹ |
| C=C[C@@H]1C[C@]1(NC(=O)[C@@H]1C[C@@H](Oc2ncc(OC)c3ccc(Cl)cc23)CN1C(=O)[C@@H](NC(=O)OC(C)(C)C)C(C)(C)C)C(=O)NS(=O)(=O)C1CC1 | population PK full model | human | oral | absorption rate constant | 0.228 h⁻¹ |
| CNC(=O)c1c(C)oc2cc(Oc3ncnc4cc(OC)c(OC)cc34)ccc12 | population PK model | human | oral, together with: proton pump inhibitor | absorption rate constant ka | 0.99 h⁻¹ |
| COC(=O)N[C@H](C(=O)N1CCC[C@H]1c1nc(-c2ccc(-c3ccc(-c4c[nH]c([C@@H]5CCCN5C(=O)[C@@H](NC(=O)OC)C(C)C)n4)cc3)cc2)c[nH]1)C(C)C | population PK full model | human | oral | absorption rate constant | 0.867 h⁻¹ |
| NC(=O)N1c2ccccc2CC(=O)c2ccccc21 | population PK, bootstrap median | human patients, plasma | oral | absorption rate constant | 0.246 h⁻¹ |
| COc1cc(N2CCC3(CCN(C)CC3)CC2)ccc1Nc1ncc(Cl)c(Nc2ccccc2P(C)(C)=O)n1 | population PK model | human fed | oral, base structural model | absorption lag time | 0.473 h |
| NC(N)=NCCC[C@@H](N)C(=O)N[C@@H](CCCN=C(N)N)C(=O)N1CCC[C@H]1C(=O)N1C[C@H](O)C[C@H]1C(=O)NCC(=O)N[C@@H](Cc1cccs1)C(=O)N[C@@H](CO)C(=O)N1Cc2ccccc2C[C@@H]1C(=O)N1[C@H](C(=O)N[C@@H](CCCN=C(N)N)C(=O)O)C[C@@H]2CCCC[C@@H]21 | popPK full model bootstrap median | human | subcutaneous | absorption rate constant (ka) | 3.26 h⁻¹ |
| O=C(O)[C@H]1/C(=C/CO)O[C@@H]2CC(=O)N21 | population PK | human, plasma | – | absorption rate constant | 0.801 h⁻¹ |
| OC[C@H]1O[C@@H](c2ccc(Cl)c(Cc3ccc(O[C@H]4CCOC4)cc3)c2)[C@H](O)[C@@H](O)[C@@H]1O | population PK model | human, plasma | oral | absorption rate constant ka | 0.196 h⁻¹ |
| NC1(C(=O)N[C@@H](CCO)c2ccc(Cl)cc2)CCN(c2nc[nH]c3nccc2-3)CC1 | – | human | – | absorption rate constant ka | 0.441 h⁻¹ |
| COc1ccc(-n2nc(C(N)=O)c3c2C(=O)N(c2ccc(N4CCCCC4=O)cc2)CC3)cc1 | – | human, plasma | oral, Full population PK model | absorption rate constant | 0.485 ± 0.0204 h⁻¹ |
| NCC(=O)Nc1cncc(-c2nn3c(=O)cc(N4CCNCC4)nc3s2)c1 | population PK model | human | subcutaneous, geometric mean | absorption rate constant (Ka) | 8.1 h⁻¹ |
| N#CCNC(=O)c1ccc(-c2ccnc(Nc3ccc(N4CCOCC4)cc3)n2)cc1 | population PK model, NONMEM | human, plasma | oral, typical value, final model | absorption rate constant ka | 0.303 h⁻¹ |
| NC(=O)c1cnc2[nH]ccc2c1N[C@@H]1[C@@H]2CC3C[C@H]1C[C@@](O)(C3)C2 | – | healthy human volunteers, plasma | oral, population PK model estimate | absorption lag time | 0.133 h |
| Cc1cn(-c2cc(NC(=O)c3ccc(C)c(Nc4nccc(-c5cccnc5)n4)c3)cc(C(F)(F)F)c2)cn1 | population PK model, typical value | human, both sexes, plasma | oral | absorption lag time (ALAG1) | 0.0988 h |

A few entries again:
| Structure (SMILES) | test | system | conditions | quantity | value |
| --- | --- | --- | --- | --- | --- |
| CC[C@@H]1CN(C(=O)NCC(F)(F)F)C[C@@H]1c1cnc2cnc3[nH]ccc3n12 | population PK modelling | human | oral, extended-release formulation, outliers re-estimated | absorption rate constant (Ka) | 0.0433 h⁻¹ |
| Nc1nc2cccc(-c3ccc(CN4CCS(=O)(=O)CC4)cc3)n2n1 | population PK bootstrap median | human | – | absorption rate constant | 0.478 h⁻¹ |
| NC(=O)N1c2ccccc2CC(=O)c2ccccc21 | population PK, bootstrap median | human patients, plasma | oral | absorption rate constant | 0.246 h⁻¹ |
